Experimental data collected from several papers.
Compare with care: the assays were run in different laboratories. ± gives the spread as reported.

Molecule | assay | test system | setting | measurement | value
CCN1C(=CC=CC=CC2=[N+](CCCCCC(=O)NCCCC[C@H](NC(=O)CN3CCN(CC(=O)O)CCN(CC(=O)O)CCN(CC(=O)O)CC3)C(=O)NCC(=O)NCC(=O)N[C@@H](Cc3ccc(O)cc3)C(=O)NCC(=O)N[C@H]3CSSC[C@@H]4NC(=O)CNC(=O)[C@H](C)NC(=O)[C@H](CC(C)C)NC(=O)[C@@H]5CSSC[C@@H](C(=O)NCC(N)=O)NC(=O)[C@H](Cc6ccccc6)NC(=O)CNC(=O)[C@H](CC(N)=O)NC(=O)[C@@H]6CCCN6C(=O)CNC(=O)[C@H](CSSC[C@H](NC(=O)[C@H](CO)NC(=O)[C@H]([C@@H](C)O)NC(=O)[C@@H]6CCCN6C(=O)[C@H](C)NC(=O)[C@H](Cc6c[nH]c7ccccc67)NC(=O)[C@H](CC(=O)O)NC(=O)CNC(=O)[C@H](CCCNC(=N)N)NC(=O)CNC(=O)[C@H](CCC(N)=O)NC(=O)[C@@H]6CCCN6C3=O)C(=O)N[C@@H](CO)C(=O)N[C@@H](CCC(N)=O)C(=O)N[C@@H](CC(=O)O)C(=O)N[C@@H](CO)C(=O)N[C@@H](CC(=O)O)C(=O)N5)NC(=O)[C@H](C(C)C)NC4=O)c3ccc4c(S(=O)(=O)[O-])cc(S(=O)(=O)O)cc4c3C2(C)C)C(C)(C)c2c1ccc1c(S(=O)(=O)O)cc(S(=O)(=O)O)cc21 (single isomer, unassigned) [copper-64 labelled] | – | nude mouse, kidney | intravenous, 100 µCi, 4 h | tissue uptake | 80.9 ± 14.9 %ID/g
N=C(N)NCCC[C@@H]1NC(=O)[C@H](CCCCNC(=O)CNC(=O)CNC(=O)CNC(=O)CC[C@H](NC(=O)CCOCCOCCOCCOCCNC(=O)c2ccc(NN)nc2)C(=O)NCC(=O)NCC(=O)NCC(=O)NCCCC[C@@H]2NC(=O)[C@@H](Cc3ccccc3)NC(=O)[C@H](CC(=O)O)NC(=O)CNC(=O)[C@H](CCCNC(=N)N)NC2=O)NC(=O)[C@@H](Cc2ccccc2)NC(=O)[C@H](CC(=O)O)NC(=O)CNC1=O [technetium-99m labelled] | γ-counting | female athymic nude mice, U-87 MG xenograft, liver | intravenous, 0.5 h | tissue uptake | 2.88 ± 0.25 %ID/g
melittin | isothermal titration calorimetry | POPC/POPG LUVs 75:25% | 100 µM, pH 7.0, 50 °C | partitioning enthalpy | -15.6 kcal/mol
COc1cccc2c1C(=O)c1c(O)c3c(c(O)c1C2=O)C[C@@](O)(C(=O)CO)C[C@@H]3O[C@H]1C[C@H](NC(=O)[C@@H]2CCCN2C(=O)CNC(=O)[C@H](CC(C)C)NC(=O)[C@H](C)NC(=O)CP(=O)(O)O)[C@H](O)[C@H](C)O1 | – | mouse, E0771 tumour-bearing, tumor | intravenous, 92 µmol/kg | Cmax | 25.2 µM
CCCCCCCCCCCCCCCC(=O)N[C@H](C(=O)N[C@H](C(=O)N[C@H](C(=O)N[C@@H](CSSCCOP(=O)(O)CO[C@H](C)Cn1cnc2c(N)ncnc21)C(=O)N[C@@H](CCC(=O)O)C(=O)O)C(C)C)C(C)C)C(C)C | – | PBS | 100 µM, 3 days, 37 °C, without dithiothreitol | stability | stable
N=C(N)NCCC[C@@H]1NC(=O)[C@H](CCCCNC(=O)[C@H](CC(=O)O)NC(=O)[C@H](CC(=O)O)NC(=O)[C@H](CC(=O)O)NC(=O)CC[C@H](NC(=O)CCOCCOCCOCCOCCNC(=O)c2ccc(NN)nc2)C(=O)N[C@@H](CC(=O)O)C(=O)N[C@@H](CC(=O)O)C(=O)N[C@@H](CC(=O)O)C(=O)NCCCC[C@@H]2NC(=O)[C@@H](Cc3ccccc3)NC(=O)[C@H](CC(=O)O)NC(=O)CNC(=O)[C@H](CCCNC(=N)N)NC2=O)NC(=O)[C@@H](Cc2ccccc2)NC(=O)[C@H](CC(=O)O)NC(=O)CNC1=O [technetium-99m labelled] | γ-counting | female athymic nude mice, U-87 MG xenograft, eyes | intravenous, 2 h | tissue uptake | 0.54 ± 0.15 %ID/g
Cc1ccccc1NC(=O)Nc1ccc(CC(=O)N[C@@H](CCCCNC(=O)/C=C/c2cccnc2)C(=O)N[C@@H](CCCC(=O)O)C(=O)NC2(C(=O)NCCOCCOCCNC(=O)CCC(=O)NCCOCCOCCNC(=O)CCC(=O)N[C@@H](CCCCNC(=O)CN3CCCN4CCN(CCCN(CC(=O)O)CC4)CC3)C(N)=O)CCCCC2)cc1 [copper-64 labelled] | PET/CT | C57BL/6 mice, B16-F10 tumour | intravenous, 2 h, with: LLP2A 100 µg blocking | tumour to background ratio | 4.2 ± 0.3
COc1cccc2c1C(=O)c1c(O)c3c(c(O)c1C2=O)C[C@@](O)(C(=O)CO)C[C@@H]3O[C@H]1C[C@H](NC(=O)[C@H](CC(C)C)NC(=O)[C@H](C)NC(=O)[C@H](CC(C)C)NC(=O)CCNC(=O)CCC(=O)O)[C@H](O)[C@H](C)O1 | – | mouse, E0771 tumour-bearing, plasma | intravenous, 92 µmol/kg | Cmax | 243 µM

Some of these lines once more:
Molecule | assay | test system | setting | measurement | value
COc1cccc2c1C(=O)c1c(O)c3c(c(O)c1C2=O)C[C@@](O)(C(=O)CO)C[C@@H]3O[C@H]1C[C@H](NC(=O)[C@H](CC(C)C)NC(=O)[C@H](C)NC(=O)[C@H](CC(C)C)NC(=O)CCNC(=O)CCC(=O)O)[C@H](O)[C@H](C)O1 | – | mouse, E0771 tumour-bearing, plasma | intravenous, 92 µmol/kg | Cmax | 243 µM
